{"data": "Results pooled from the literature", "note": "Every numbered part comes from another study and shows a few of its results, in no order."}
{"data": "Sample 1", "target": "Replicase polyprotein 1ab, polymerase (rep, Severe acute respiratory syndrome coronavirus 2, UniProt P0DTD1)", "observed": "enzyme activity", "action": "inhibitor", "concentration": "20 µM"}
{"Structure (SMILES)": "O=C(Nc1cccc(C(F)(F)F)c1)Nc1ccc(Br)cc1-c1nn[nH]n1", "inhibition [%]": 74}
{"Structure (SMILES)": "CCC(=O)O[C@H](CC(=O)O)C[N+](C)(C)C", "inhibition [%]": 1.62}
{"Structure (SMILES)": "CC(=O)N[C@H]1[C@H]([C@H](O)[C@H](O)CO)OC(O)(C(=O)O)C[C@@H]1O (some centres unmarked)", "inhibition [%]": -0.14}
{"Structure (SMILES)": "CCCCC(F)(F)[C@@]1(O)CC[C@H]2[C@@H](CC(=O)[C@@H]2CCCCCCC(=O)O)O1", "inhibition [%]": -7.78}
{"Structure (SMILES)": "C[N+](C)(C)CC[N+]1(C)Cc2c(Cl)c(Cl)c(Cl)c(Cl)c2C1", "inhibition [%]": 1.11}
{"Structure (SMILES)": "N[C@H]1C(O)O[C@H](CO)[C@@H](O)[C@@H]1O (some centres unmarked)", "inhibition [%]": 7.15}
{"Structure (SMILES)": "CC(=O)NC[C@H]1CN(c2ccc(-c3ccc(CNCc4cnn[nH]4)cc3)c(F)c2)C(=O)O1", "inhibition [%]": 0.63}
{"Structure (SMILES)": "CN(C)c1ccc(/C=C2\\C(=O)Nc3ccccc32)cc1", "inhibition [%]": 1.98}
{"Structure (SMILES)": "O=C(O)CSc1nnc(Br)n1-c1ccc(C2CC2)c2ccccc12", "inhibition [%]": 4.07}
{"Structure (SMILES)": "CC(C)c1cc(-c2ccc(F)c3ccccc23)nc(N)n1", "inhibition [%]": 5.59}
{"Structure (SMILES)": "Clc1ccc(Nc2nnc(Cc3ccncc3)c3ccccc23)cc1", "inhibition [%]": 1.8}
{"Structure (SMILES)": "Nc1ccccc1S(N)(=O)=O", "inhibition [%]": -0.87}
{"Structure (SMILES)": "CN(C)CCOC1=Cc2ccccc2Sc2ccc(Cl)cc21", "inhibition [%]": -1.19}
{"Structure (SMILES)": "CCCN(CCC)C1CCc2cccc(O)c2C1 (centres unmarked)", "inhibition [%]": -2.59}
{"Structure (SMILES)": "CCCCCCCCCCCCCCCCCCCCCC(=O)Nc1ccn([C@@H]2O[C@H](CO)[C@@H](O)[C@@H]2O)c(=O)n1", "inhibition [%]": -5.51}
{"Structure (SMILES)": "CCOCc1nc2c(N)nc3ccccc3c2n1CC(C)(C)O", "inhibition [%]": 1.05}
{"Structure (SMILES)": "CCCCNNC(=O)c1ccc(Br)cc1", "inhibition [%]": 2.02}
{"Structure (SMILES)": "C[C@H](Nc1cc(-c2cnn(C)c2)cc(Nc2cnccn2)n1)c1ccc(F)cc1", "inhibition [%]": -7.55}
{"Structure (SMILES)": "CC(=O)Nc1ccc(C(=O)Nc2ccccc2N)cc1", "inhibition [%]": 0.42}
{"Structure (SMILES)": "c1ccc(NCc2ccc(CNc3ccccn3)cc2)nc1", "inhibition [%]": -2.76}
{"Structure (SMILES)": "O=C1Nc2ccccc2C12OCC1(CO2)COC2(OC1)C(=O)Nc1ccccc12 (centres unmarked)", "inhibition [%]": 3.85}
{"Structure (SMILES)": "Cc1cc(-c2ccc(CC(=O)Nc3ccc(-c4cccnc4)cc3)cc2)ccn1", "inhibition [%]": -0.72}
{"Structure (SMILES)": "C=CC(=O)Nc1ccc2ncnc(Nc3cccc(Br)c3)c2c1", "inhibition [%]": 2.18}
{"data": "Sample 2", "target": "Histone acetyltransferase KAT6A, both winged helices, GST fusion (KAT6A, Homo sapiens, UniProt Q92794, residues 1-181)", "technique": "protein binding microarray", "molecule type": "double-stranded DNA, one strand shown", "medium": "in vitro", "concentration": "not given", "setting": "8-mer, flanks averaged, mean of 2 arrays, mostly near background", "reference": "not given", "direction": "higher = stronger binding", "Residues (chain)": "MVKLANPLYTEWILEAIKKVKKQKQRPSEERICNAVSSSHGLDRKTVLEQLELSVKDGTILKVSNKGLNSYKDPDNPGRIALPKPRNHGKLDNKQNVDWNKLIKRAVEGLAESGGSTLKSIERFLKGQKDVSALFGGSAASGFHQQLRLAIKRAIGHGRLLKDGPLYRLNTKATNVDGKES"}
{"Strand": "CAAATGCC", "E-score": -0.0924}
{"Strand": "TACTAGCA", "E-score": -0.0172}
{"Strand": "ATTTTAGG", "E-score": -0.196}
{"Strand": "CACTATTA", "E-score": -0.0647}
{"Strand": "ACGTGTGA", "E-score": -0.0129}
{"Strand": "AGCCCATA", "E-score": -0.174}
{"Strand": "GCTAAGCC", "E-score": 0.162}
{"Strand": "AGGATGGG", "E-score": -0.249}
{"data": "Sample 3", "target": "Replicase polyprotein 1ab, main protease (rep, Severe acute respiratory syndrome coronavirus 2, UniProt P0DTD1)", "observed": "enzyme activity", "action": "inhibitor", "setting": "no DTT"}
{"Compound": "CC[n+]1c(-c2ccccc2)c2cc(N)ccc2c2ccc(N)cc21", "IC50": "> 20 µM"}
{"Compound": "C[C@H](NC(=O)/C(C#N)=C/c1cccc(Br)n1)c1ccccc1", "IC50": "> 20 µM"}
{"Compound": "C=C1C(=O)O[C@H]2[C@H]1CC/C(C)=C/CC[C@@]1(C)O[C@@H]21", "IC50": "10 µM"}
{"data": "Sample 4", "target": "TAR DNA-binding protein 43, full length, His tag (TARDBP, Homo sapiens, UniProt Q13148, residues 1-414)", "technique": "RNA Bind-n-Seq", "molecule type": "RNA", "medium": "in vitro", "concentration": "20 nM", "setting": "6-mer, flanks averaged, single round", "together with": "150 mM KCl", "reference": "input library", "direction": "higher = stronger binding"}
{"Strand": "ACGAUA", "6-mer enrichment (R)": 0.623}
{"Strand": "UAUGAA", "6-mer enrichment (R)": 0.86}
{"Strand": "UGUAAG", "6-mer enrichment (R)": 0.974}
{"Strand": "AACAAG", "6-mer enrichment (R)": 0.833}
{"Strand": "GUGUGC", "6-mer enrichment (R)": 1.71}
{"Strand": "UGCAUG", "6-mer enrichment (R)": 1.11}
{"Strand": "GCCUGA", "6-mer enrichment (R)": 0.842}
{"Strand": "GAUCCG", "6-mer enrichment (R)": 0.854}
{"data": "Sample 5", "target": "Interferon regulatory factor 5, full length, phosphomimetic (IRF5, Homo sapiens, UniProt Q13568-2, residues 1-514, S451D/S453D/S456D/S462D)", "technique": "protein-binding microarray", "molecule type": "double-stranded DNA, one strand shown", "medium": "in vitro", "concentration": "940 nM top", "setting": "60-bp whole probe", "together with": "salmon DNA 0.4 mg/ml", "reference": "random background probes", "direction": "higher = stronger binding", "all sequences stand within": "GCCTAGCAC … GTCTTGATTCGCTTGACGCTGCTG"}
{"Strand": "TCATTATTTACTCTCTAACTGTGCTAG", "fitted relative affinity [z-score]": 1.55}
{"Strand": "TTAGGTTTCCTTTCCATTTAGTGCTAG", "fitted relative affinity [z-score]": 2.08}
{"Strand": "GACCATATCGGGACTGGAGACGTGCTA", "fitted relative affinity [z-score]": -0.441}
{"Strand": "GACCGTATCGACACTGGGGACGTGCTA", "fitted relative affinity [z-score]": 1.69}
{"Strand": "GGCGGTATCGGGTTTCGGGACGTGCTA", "fitted relative affinity [z-score]": 5.8}
{"Strand": "TCATATGTACTCTCTCCAACTGTGCTA", "fitted relative affinity [z-score]": 0.969}
{"Strand": "GTTCTACCTCTGCCTTTTGTGTGCTAG", "fitted relative affinity [z-score]": 1.14}
{"Strand": "GACGGACTGTGGACTGGGGACGTGCTA", "fitted relative affinity [z-score]": -0.189}
{"data": "Sample 6", "cell line": "HEK-293T/ACE2", "concentration": "concentration not given", "time": "16 (unit not given)", "reference": "vehicle"}
{"Structure (SMILES)": "CNC(=C[N+](=O)[O-])NCCSCc1csc(CN(C)C)n1", "viability": "101%"}
{"Structure (SMILES)": "C=C1CC[C@@]2(O)[C@H]3Cc4ccc(O)c5c4[C@@]2(CCN3CC2CC2)[C@H]1O5", "viability": "101%"}
{"Structure (SMILES)": "CC1=C(CC(=O)O)c2cc(F)ccc2/C1=C\\c1ccc([S+](C)[O-])cc1 (centres unmarked)", "viability": "101%"}
{"note": "Repeated from above (sample 1):"}
{"Structure (SMILES)": "CC(=O)N[C@H]1[C@H]([C@H](O)[C@H](O)CO)OC(O)(C(=O)O)C[C@@H]1O (some centres unmarked)", "inhibition [%]": -0.14}
{"Structure (SMILES)": "CCCCC(F)(F)[C@@]1(O)CC[C@H]2[C@@H](CC(=O)[C@@H]2CCCCCCC(=O)O)O1", "inhibition [%]": -7.78}
{"Structure (SMILES)": "C[N+](C)(C)CC[N+]1(C)Cc2c(Cl)c(Cl)c(Cl)c(Cl)c2C1", "inhibition [%]": 1.11}
{"Structure (SMILES)": "N[C@H]1C(O)O[C@H](CO)[C@@H](O)[C@@H]1O (some centres unmarked)", "inhibition [%]": 7.15}
{"Structure (SMILES)": "CC(=O)NC[C@H]1CN(c2ccc(-c3ccc(CNCc4cnn[nH]4)cc3)c(F)c2)C(=O)O1", "inhibition [%]": 0.63}
{"Structure (SMILES)": "CN(C)c1ccc(/C=C2\\C(=O)Nc3ccccc32)cc1", "inhibition [%]": 1.98}
{"Structure (SMILES)": "O=C(O)CSc1nnc(Br)n1-c1ccc(C2CC2)c2ccccc12", "inhibition [%]": 4.07}
{"Structure (SMILES)": "CC(C)c1cc(-c2ccc(F)c3ccccc23)nc(N)n1", "inhibition [%]": 5.59}
